# Experimental data gathered from unrelated publications.
# ± marks the error that the study gave.
SMILES,tested on,test,test system,conditions,how to read,endpoint,result
O=[N+]([O-])c1cccc(S(=O)(=O)NC[C@@H](O)[C@@H]2CCc3cc(F)ccc3O2)c1,Rhizopus arrhizus,microbial growth,,,,MIC,14.4 µg/mL
CCCOC(=O)N1c2cc(CNC)ccc2[C@H](NC(=O)C(=O)Nc2ccc(Cl)c(F)c2)[C@H]1CNC(=N)N,Human immunodeficiency virus 1,"viral infection, Env pseudovirus","TZM-bl, ZM197M.PB7 clade C",,,IC80,326 nM
C=C1C[C@](OC)([C@H](O)C(=O)NC[C@@H]2C[C@@H](OC)C(C)(C)[C@@H](C[C@@H](COC)OC)O2)O[C@H](C)[C@@H]1C,U-87 MG,"cell viability, sulforhodamine B",,"72 h, 37 °C, added: H2O2 100 µM",,IC50,7 ± 0.6 nM
NS(=O)(=O)c1ccc(NC(=O)c2ccccc2SSc2ccccc2C(=O)Nc2ccc(S(N)(=O)=O)cc2)cc1,"Gag-Pol polyprotein, integrase residues 1-213 (gag-pol, Human immunodeficiency virus type 1 group M subtype B, UniProt P04585)","DNA binding, fluorescence anisotropy",integrase ΔC,"compound:IN ratio 3:1, added: 10 mM Mn2+, U5 DNA",,Hill coefficient,1.21 ± 0.11
CC(=O)NCCN(CC(=O)NCCN(CC(=O)NCCN(CC(=O)NCCC(N)=O)C(=O)[C@@H](N)CCCCN)C(=O)[C@@H](N)Cc1ccccc1)C(=O)[C@@H](N)Cc1ccccc1,HIV-1 TAR RNA,,,"concentration not given, 25 °C",,binding entropy term TΔS°,-4.35 ± 0.335 kcal/mol
COC1CN([C@H]2CC[C@H]([C@@]3(C)Oc4c(Cl)cc(C(=O)NCc5c(SC)cc(C)[nH]c5=O)c(C)c4O3)CC2)C1,,"RNA-seq, refers to: MARVELD2 mouse homolog","mouse, HT-1376 xenograft, whole blood",dose not given,reference: vehicle,log2 fold change,0.211
CC(=O)NCCN(CCC(=O)NCCN(CCC(=O)NCCN(CCC(=O)NCCC(N)=O)C(=O)[C@@H](N)Cc1ccccc1)C(=O)[C@@H](N)CCCNC(=N)N)C(=O)[C@@H](N)Cc1ccccc1,HIV-1 TAR RNA,,,"concentration not given, 25 °C",,binding entropy term TΔS°,0.191 ± 0.0717 kcal/mol
CNCc1ccc2c(c1)N(C(=O)OCc1c(F)c(F)c(F)c(F)c1F)[C@H](CNC(=N)N)[C@H]2NC(=O)C(=O)Nc1ccc(Cl)c(F)c1,Human immunodeficiency virus 1,"viral infection, Env pseudovirus","TZM-bl, ZM53M.PB12 clade C",,,IC50,3610 nM
C[C@H](Nc1ncnc(N)c1C#N)c1c(-c2ccccc2)[nH]c2c(Cl)cccc2c1=O,WSU-NHL,annexin V flow cytometry,,0.3 µM,reference: untreated,apoptotic cells,4.2 fold
CC[C@H](C)[C@H](NC(=O)[C@H](Cc1ccccc1)NC(=O)[C@@H](NC(=O)[C@@H](NC(=O)[C@H](CC(C)C)NC(=O)[C@H](CCCCN)NC(=O)[C@@H](N)CCCCN)[C@@H](C)CC)[C@@H](C)O)C(=O)N[C@@H](CC(C)C)C(=O)N[C@@H](CCCCN)C(=O)N[C@@H](CCCCN)C(=O)N[C@H](C(=O)N[C@@H](CCCNC(=N)N)C(=O)N[C@@H](CCC(=O)O)C(=O)N[C@@H](CCCCN)C(=O)N[C@@H](CCCCN)C(=O)N[C@@H](CCCCN)C(=O)N[C@@H](CCC(=O)O)C(=O)N[C@@H](CS)C(=O)N[C@@H](CC(C)C)C(=O)N[C@H](C(=O)O)C(C)C)[C@@H](C)O,TTX-sensitive sodium channel,"open-channel blocker, kinetic model fit",mouse hippocampal CA3 neurons,"200 µM intracellular, membrane potential -10 mV",,unblocking rate constant,742 s⁻¹
CNCc1ccc2c(c1)C[C@H](CNC(=N)N)[C@H]2NC(=O)C(=O)Nc1ccc(Cl)c(F)c1,Human immunodeficiency virus 1,"viral infection, Env pseudovirus","TZM-bl, REJO4541.67 clade B",,,IC80,624 nM
CC[C@H](C)[C@H](NC(=O)[C@H](CC(C)C)NC(=O)[C@H](CCCCN)NC(=O)[C@@H](N)CCCCN)C(=O)N[C@H](C(=O)N[C@@H](Cc1ccccc1)C(=O)N[C@H](C(=O)N1CCC[C@H]1C(=O)N[C@@H](CCCCN)C(=O)N[C@@H](CCCCN)C(=O)N[C@H](C(=O)N[C@@H](CCCNC(=N)N)C(=O)N[C@@H](CCC(=O)O)C(=O)N[C@@H](CCCCN)C(=O)N[C@@H](CCCCN)C(=O)N[C@@H](CCCCN)C(=O)N[C@@H](CCC(=O)O)C(=O)N[C@@H](CS)C(=O)N[C@@H](CC(C)C)C(=O)N[C@H](C(=O)O)C(C)C)[C@@H](C)O)[C@@H](C)CC)[C@@H](C)O,TTX-sensitive sodium channel,"open-channel blocker, kinetic model fit",mouse hippocampal CA3 neurons,"200 µM intracellular, membrane potential -10 mV",,unblocking rate constant,4930 s⁻¹
F[P-](F)(F)(F)(F)F.OC(Cn1cncn1)(Cn1cc(-[c-]2cccc2)nn1)c1ccc(F)cc1F.[Co+3].c1cc[cH-]c1 (racemic),Trichuris muris,Worminator,adult males and females,"100 µM, day 0",,motility inhibition,30%
CO[C@H]1O[C@H](COC(c2ccccc2)(c2ccccc2)c2ccccc2)[C@@H](OS(=O)(=O)c2ccccc2)[C@H](OS(=O)(=O)c2ccccc2)[C@H]1OS(=O)(=O)c1ccccc1,Aspergillus niger,"mycelial growth, poisoned food technique",,"20 µg/µL, DMSO",,inhibition,67.92 ± 0.46%
CC[C@H](C)[C@H](NC(=O)[C@H](CC(C)C)NC(=O)[C@@H](NC(=O)[C@@H](NC(=O)[C@H](CC(C)C)NC(=O)[C@H](CCCCN)NC(=O)[C@@H](N)CCCCN)[C@@H](C)CC)[C@@H](C)O)C(=O)N[C@@H](Cc1ccccc1)C(=O)N[C@@H](CCCCN)C(=O)N[C@@H](CCCCN)C(=O)N[C@H](C(=O)N[C@@H](CCCNC(=N)N)C(=O)N[C@@H](CCC(=O)O)C(=O)N[C@@H](CCCCN)C(=O)N[C@@H](CCCCN)C(=O)N[C@@H](CCCCN)C(=O)N[C@@H](CCC(=O)O)C(=O)N[C@@H](CS)C(=O)N[C@@H](CC(C)C)C(=O)N[C@H](C(=O)O)C(C)C)[C@@H](C)O,TTX-sensitive sodium channel,"open-channel blocker, kinetic model fit",mouse hippocampal CA3 neurons,"200 µM intracellular, membrane potential -30 mV",,unblocking rate constant,1330 s⁻¹
COc1ccc(-c2cc(=O)c3c(O)c(OC)c(O)c(OC)c3o2)cc1O,Human immunodeficiency virus 1,"viral replication, inhibitor, luciferase",MT2,48 h,,IC50,2700 nM
